Assay results of several laboratories.
Each line is one published result; not all experiments were run side by side.
Cell line: THP-1

`N#Cc1ccc2c(CN3CCOCC3)cc(-c3ccc([C@H]4CCC(=O)N4)cc3)nc2c1` — result for mRNA level: “decreased” (decreased, refers to: TNF; 10 µM, together with: CML-HSA; relative to: vehicle).
For `CN1CCN(C(=O)[C@H](CCCN[C@@H]2C[C@H]2c2ccc(F)cc2)NC(=O)c2ccc(-n3ccnn3)cc2)CC1`, the EC50 was 4.15 nM (differentiation, flow cytometry, refers to: CD11b; 96 h).
`CN1CC(Oc2cnc(C#N)cc2-c2ccn3nc(NC(=O)C4CC4)cc3c2)C1` gave an EC50 of 980 nM (nuclear translocation, refers to: CRTC3; representative triplicate curve).
The inhibition of `CC(=O)[C@H]1CC[C@H]2[C@@H]3CCC4=CC(=O)CC[C@]4(C)[C@H]3CC[C@]12C` is reported as -5.51% (pyroptotic LDH release; 2 µM, 40 min, together with: LPS then nigericin).
For `C=CC(=O)N1CC/C(=C\c2ccc(F)c([N+](=O)[O-])c2)C(=O)/C(=C/c2ccc(F)c([N+](=O)[O-])c2)C1`, the IC50 was 391 nM (IL-1β secretion, inhibitor, reporter, HEK-Blue, IL-1β; together with: LPS and ATP).
The inhibition of `CCOC(=O)N1c2ccc(C(F)(F)F)cc2[C@@H](N(Cc2cc(C(F)(F)F)cc(C(F)(F)F)c2)C(=O)OC)C[C@H]1CC` is reported as 29.3% (pyroptotic LDH release; 2 µM, 40 min, together with: LPS then nigericin).
For `C#CCN(C)Cc1ccccc1`, the EC50 was > 2000 nM (differentiation, flow cytometry, refers to: CD11b; 96 h).
For `C[C@H]1[C@@H](O)O[C@@H]2O[C@@]3(C)CC[C@H]4[C@H](C)CC[C@@H]1[C@@]24OO3`, the necrotic cells was 0.1% (annexin V/PI flow cytometry, refers to: annexin V-/PI+; 0.2 µM, 24 h).
For `COC(=O)/C=C/C(=O)OCCN1C(=O)CCC1=O`, the IC50 was 1940 nM (pyroptotic cell death, inhibitor, CellTiter-Glo; together with: LPS priming and nigericin).
`CC(=O)N[C@@H](CCC(=O)O)C(=O)O` gave an inhibition of -5.86% (pyroptotic LDH release; 2 µM, 40 min, together with: LPS then nigericin).
`O=C1/C(=C/c2ccccc2)C(NC2CCCCC2)c2ccccc21` (stereo not drawn) has an IC50 of 232 nM (pyroptotic cell death, inhibitor, CellTiter-Glo; together with: LPS priming and nigericin).
The inhibition of `C[C@@H]1CCC[C@H](C)N1NC(=O)c1ccc(Cl)c(S(N)(=O)=O)c1` is reported as -5.66% (pyroptotic LDH release; 2 µM, 40 min, together with: LPS then nigericin).
With `C[C@H](NC(=O)C(=O)Nc1ccccc1C(C)(C)C)C(=O)N[C@@H](CC(=O)O)C(=O)COc1c(F)c(F)cc(F)c1F` the viability was 42.3% (inhibitor, CellTiter-Glo; 10 µM, together with: staurosporine 1 µM).
The EC50 of `O=C(O)c1ccc(CN2CCC(CN[C@@H]3C[C@H]3c3ccccc3)CC2)cc1` is reported as 31.2 nM (differentiation, flow cytometry, refers to: CD11b; 96 h).
With `CCCN1CCCC[C@H]1C(=O)Nc1c(C)cccc1C` the inhibition was 4.05% (pyroptotic LDH release; 2 µM, 40 min, together with: LPS then nigericin).
The maximum protection of `CC1=C(CO)C(=O)O[C@@H]([C@@H](C)[C@H]2CC[C@H]3[C@@H]4C[C@H]5O[C@]56[C@@H](O)C=CC(=O)[C@]6(C)[C@H]4CC[C@]23C)C1` is reported as 63.4% (pyroptotic cell death, CellTiter-Glo; together with: LPS priming and nigericin).
`C[C@@H](O)[C@H](NC(=O)[C@H](CCCNC(=N)N)NC(=O)[C@H](CC(N)=O)NC(=O)[C@H](CC(N)=O)NC(=O)[C@@H](N)CCCNC(=N)N)C(=O)N[C@@H](CO)C(=O)NCC(=O)N[C@@H](Cc1ccccc1)C(=O)N[C@@H](CCCCN)C(=O)N[C@@H](Cc1c[nH]c2ccccc12)C(=O)O` — result for “active β-catenin level”: 1.4 (Western blot; 0.5 µM, 3 days, unit not given, together with: WNT3A; relative to: WNT3A alone).
`CCn1cc(-c2cc(Cn3ccnc3)cc3c2CCN([C@H](c2cc(OC)ccn2)C2CC2)C3=O)c(C(F)(F)F)n1` has an EC50 of > 30000 nM (cell growth, inhibitor; 120 h).
With `CC(C)c1cc(C(C)C)c(CC(=O)NS(=O)(=O)Oc2c(C(C)C)cccc2C(C)C)c(C(C)C)c1` the inhibition was 22.2% (pyroptotic LDH release; 2 µM, 40 min, together with: LPS then nigericin).
For `COc1cnc2cccc(N3CCc4c(cc(Cn5ccnc5C)cc4-c4cn(C)nc4C(F)(F)F)C3=O)c2c1`, the EC50 was > 30000 nM (cell growth, inhibitor; 120 h).
For `CC1(C)CC[C@]2(NC(=O)C(C)(F)F)CC[C@]3(C)[C@H](C(=O)C=C4[C@@]5(C)C=C(C#N)C(=O)C(C)(C)[C@@H]5CC[C@]43C)[C@@H]2C1`, the maximum protection was 50.9% (pyroptotic cell death, CellTiter-Glo; together with: LPS priming and nigericin).

Some of these lines once more:
`CCn1cc(-c2cc(Cn3ccnc3)cc3c2CCN([C@H](c2cc(OC)ccn2)C2CC2)C3=O)c(C(F)(F)F)n1` has an EC50 of > 30000 nM (cell growth, inhibitor; 120 h).
With `CC(C)c1cc(C(C)C)c(CC(=O)NS(=O)(=O)Oc2c(C(C)C)cccc2C(C)C)c(C(C)C)c1` the inhibition was 22.2% (pyroptotic LDH release; 2 µM, 40 min, together with: LPS then nigericin).
For `COc1cnc2cccc(N3CCc4c(cc(Cn5ccnc5C)cc4-c4cn(C)nc4C(F)(F)F)C3=O)c2c1`, the EC50 was > 30000 nM (cell growth, inhibitor; 120 h).
